Published values gathered from unrelated publications.
“And” joins repeats or separate records; there may be more than shown. ± gives the spread as reported. Where no end group is shown, it is not given here. The star is where a group is joined.
ESR2: Estrogen receptor beta (ESR2, Homo sapiens, UniProt Q92731)
CSK: Tyrosine-protein kinase CSK (CSK, Homo sapiens, UniProt P41240)
OPRK1: Kappa-type opioid receptor (OPRK1, Homo sapiens, UniProt P41145)
lasR: Transcriptional activator protein LasR (lasR, Pseudomonas aeruginosa, UniProt P25084)
Aequorin-1 C152S/C159S/C187S: Aequorin-1 (Aequorea victoria, UniProt P07164, C152S/C159S/C187S)
ESR1: Estrogen receptor (ESR1, Homo sapiens, UniProt P03372)
CNR2: Cannabinoid receptor 2 (CNR2, Homo sapiens, UniProt P34972)
Kelch domain-containing protein 2: Kelch domain-containing protein 2 (UniProt Q9Y2U9)

Substance | target | assay | test system | setting | how to read | endpoint | value
Oc1ccc(-c2ccc(-c3ccc(O)cc3Cl)[se]2)c(Cl)c1 | ESR2 | antagonist | HEK293T | highest tested concentration, 24 h, added: estradiol 10 nM | baseline: estradiol alone | efficacy | 74 ± 5%
CC(C)c1ccc(NC(=O)Oc2ccc3c(c2)[C@]2(C)CCN(CCc4ccccc4)[C@@H]2N3C)cc1 | CES1 (Homo sapiens, UniProt P23141) | irreversible inhibitor | – | 5× IC50 or 200 µM, 1 h, preincubation then inhibitor removal, added: o-nitrophenyl acetate substrate | – | remaining activity | 0%
C[C@H](CCC(=O)NCC(=O)O)[C@H]1CC[C@H]2[C@@H]3[C@H](O)C[C@@H]4C[C@@H](O)CC[C@]4(C)[C@H]3CC[C@]12C | SLC10A2 (Homo sapiens, UniProt Q12908) | substrate | MDCK transfected with SLC10A2 | 10 min, 37 °C | – | Kt | 59.5 µM
EEEPEYAEIIVLP | CSK | substrate, coupled enzyme | peptide | pH 7.4, room temperature, added: 1 mM ATP, 5 mM MnCl2 | – | kcat/Km | 490 M⁻¹ s⁻¹
NS(=O)(=O)OC[C@@H]1C[C@@H](n2ccc3c(N[C@H]4CCc5ccccc54)ncnc32)C[C@@H]1O | IDO1 (Homo sapiens, UniProt P14902) | inhibitor, western blot | HeLa | 1 µM, 2 h pretreatment, then 24 h, added: IFN-γ 5 ng/mL plus degrader 5 µM | – | IDO1 degradation | inhibited
Cc1ccc(Oc2ccc(C(=O)N[C@H](CN3CCN(c4cccc(O)c4)[C@@H](C)C3)C(C)C)cc2)cc1 | OPRK1 | antagonist | CHO | added: U69593 | – | Ke | 0.69 ± 0.25 nM
O=Cc1ccc(CO)o1 | Hemoglobin subunit alpha, with beta chain (HBA1, Homo sapiens, UniProt P69905) | kinetic binding, cation-exchange HPLC | – | 37 °C | – | koff | 3.61e-05 s⁻¹
NFWELSKYLHMA | HIV-1 neutralising antibody 4E10 | phage binding, M13 phage ELISA | peptide | concentration not given | lower = stronger binding | binding titer | 1.6e+07 M13/mL
CC(C)[C@H](NC(=O)C[C@H](NC(=O)CCCCCCCCCCn1cc(CCCCOCCOCCOCCOCCOCCOCCOc2ccc(Br)c(-c3cc4cnc(N)nc4nc3N)c2Br)nn1)c1ccccc1)C(=O)[C@@H]1C(=O)NC(=O)[C@H]1C | accD/accA/accC (Escherichia coli, UniProt P0A9Q5+P0ABD5+P24182) | competition LC-MS/MS | – | added: competitors 50 µM | – | residence time | 3.3 min
COc1ncc(C[n+]2csc(CCOP(=O)(O)OP(=O)(O)O)c2C)c(N)n1 | sucA (Escherichia coli, UniProt P0AFG3) | NADH formation | – | 0.20 mM | – | enzyme activity | 18.1 µmol/min/mg E1o and 13.2 µmol/min/mg E1o
CCOC(=O)OC(=O)OCC | ADH1 (Saccharomyces cerevisiae, UniProt P00330, H45R/H49Q) | enzyme activity, inactivator | – | 120 µM, pH 8.0, 30 °C, turnover number | – | remaining activity | 49 s⁻¹
O=C(O)[C@H]1NC[C@@H]2C(O)=NO[C@@H]21 | Slc1a1 (Rattus norvegicus, UniProt P51907) | inhibitor | – | 10 µM, forward transport mode, added: glutamate from MNI-caged glutamate photolysis | – | peak transient transport current | inhibited
RYAHPTGMYY | PIM1 (Homo sapiens, UniProt P11309) | substrate, coupled enzyme | peptide | pH 7.4, room temperature, added: 1 mM ATP, 20 mM MgCl2 | – | kcat/Km | 1200 M⁻¹ s⁻¹
Ac-VVIA (N-acetyl) | Amyloid-beta precursor protein, Aβ42 (APP, Homo sapiens, UniProt P05067, D672Y/Y681F) | intrinsic tyrosine fluorescence | peptide, sodium phosphate buffer | concentration not given, pH 7.4, 22 °C, APP 5 µM | – | fluorescence increase | 48 ± 3%
ERMLFEW (disulfide (positions not given here)) (cyclic, disulfide) | HIV-1 neutralising antibody 4E10 | phage binding, M13 phage ELISA | – | concentration not given | lower = stronger binding | binding titer | 8.6e+06 M13/mL
O=C(Cc1ccc(-c2ccccc2)cc1)NC1CCSC1=O (centres unmarked) | lasR | reporter gene, agonist | PAO1 MW1 pUM15 | 10 µM, added: OdDHL | – | activation | > 20%
C[C@]12CC[C@@H]3c4ccc(O)cc4CC[C@H]3[C@@H]1CC[C@@H]2O | Neuronal acetylcholine receptor subunit alpha-4, with beta2 subunit (CHRNA4, Homo sapiens, UniProt P43681) | potentiator | – | – | – | potentiating concentration | > 1 µM
Nc1nnc(S)s1 | Peptide deformylase (def, Escherichia coli, UniProt P0A6K3) | – | – | 500 µM, over 2 days, stock in acetonitrile | baseline: control | remaining activity | 96%
CCCN(CCc1ccc(O)cc1)C(=O)[C@@H](C)c1cccc(C(=O)c2ccccc2)c1 | Luciferin 4-monooxygenase (Photinus pyralis, UniProt P08659) | enzyme activity, counter- | C3H10T1/2 cell lysate | concentration not given | – | luciferase inhibition | no effect
CC12CC3CC1(C)C1(C)CC3(CN)CC21C.Cl | Glutamate NMDA receptor; Grin1/Grin2a (Grin1/Grin2a, Rattus norvegicus, UniProt P35439+Q00959) | NMDA current unblock, whole-cell patch clamp | tsA201 cells | 10 µM, holding potential -60 mV, added: 100 µM NMDA plus 10 µM glycine | – | current recovery after washout | 90.6 ± 3.5%
O[C@@H](CN1CC[C@H](CCOC(c2ccccc2)c2ccccc2)[C@@H](O)C1)c1ccc(F)cc1 | Transporter (Slc6a2, Rattus norvegicus, UniProt Q63380) | noradrenaline uptake, inhibitor | rat hippocampus | added: [3H]noradrenaline | – | Ki | 24.8 nM
CC[C@H](C)[C@H](NC(=O)[C@@H]1CSSC[C@@H]2NC(=O)[C@H]([C@@H](C)O)NC(=O)[C@H](C(C)C)NC(=O)CNC(=O)[C@H](CC(N)=O)NC(=O)[C@@H](NC(=O)[C@@H]3CCCN3C(=O)[C@H](CC(N)=O)NC(=O)[C@H](CC(N)=O)NC(=O)[C@H](CC(C)C)NC(=O)[C@H](Cc3ccc(O)cc3)NC(=O)[C@H](CCCCN)NC(=O)[C@H](CO)NC(=O)[C@@H](N)CC(N)=O)CSSC[C@H](NC(=O)[C@H](CCCNC(=N)N)NC(=O)[C@H](Cc3ccc(O)cc3)NC(=O)CNC(=O)[C@H](CO)NC(=O)[C@@H]3CCCN3C2=O)C(=O)N[C@@H](CO)C(=O)N[C@@H]([C@@H](C)CC)C(=O)N[C@@H](C(C)C)C(=O)N[C@@H](CC(=O)O)C(=O)N[C@@H](CCCCN)C(=O)N[C@@H](CCC(N)=O)C(=O)N1)C(=O)N[C@@H](CCCCN)C(=O)N[C@@H](CCCCN)C(=O)N[C@@H](CCC(=O)O)C(=O)O | Trpv1 (Mus musculus, UniProt Q704Y3, E571A) | agonist, outside-out patch | – | 300 µM, after desensitisation | – | single-channel conductance | 65.8 ± 6.7 pS
Oc1c(Cl)cc(-c2ccc(Cl)c(Cl)c2)cc1Cl | Aequorin-1 C152S/C159S/C187S | aequorin bioluminescence, inhibitor | – | 2 h, added: coelenterazine | – | detection limit | 19 µM
CN(C)C(=N)N=C(N)N | SLC22A2 (Homo sapiens, UniProt O15244) | – | – | – | – | unstirred water layer bias | ~75 µM

Substance | target | assay | test system | setting | how to read | endpoint | value
DDESEYINIPDGE | CSK | substrate, coupled enzyme | peptide | pH 7.4, room temperature, added: 1 mM ATP, 5 mM MnCl2 | – | kcat/Km | 130 M⁻¹ s⁻¹
Oc1ccc(-c2cc(-c3ccc(O)cc3)c(-c3ccc(O)cc3)[se]2)cc1 | ESR1 | antagonist | HEK293T | highest tested concentration, added: estradiol 10 nM | baseline: estradiol alone | efficacy | -7 ± 2%
CC(C)[C@@H](CN1CCN(c2cccc(O)c2)[C@@H](C)C1)NC(=O)c1ccc(Oc2ccccc2)cc1 | OPRM1 (Homo sapiens, UniProt P35372) | antagonist | CHO | added: DAMGO | – | Ke | 51 nM
C/C(=C\c1csc(C)n1)[C@@H]1C[C@@H]2O[C@]2(C)CCC[C@H](C)[C@H](O)[C@@H](C)C(=O)C(C)(C)[C@@H](O)CC(=O)O1 | microtubules (bovine, glutaraldehyde-fixed) | competitor | – | 25 µM, added: [3H]paclitaxel 2.5 µM | – | [3H]paclitaxel bound per tubulin | 0.16 ± 0.043
CCCCCn1nc(C(=O)NC(C)(C)c2cccc(C(N)=O)c2)c2ccccc21 | CNR2 | calcium mobilization, agonist | CHO-K1 expressing Gαq16 | – | baseline: CP55,940 maximum | Emax | 43 ± 5%
Oc1ccc(-c2ccc(-c3ccc(O)cc3)[se]2)cc1 | ESR1 | antagonist | HEK293T | highest tested concentration, added: estradiol 10 nM | baseline: estradiol alone | efficacy | 44 ± 10%
DDFFVGRVGG | Kelch domain-containing protein 2 | native mass spectrometry | peptide, 200 mM ammonium acetate | 20 µM Kelch domain-containing protein 2, pH 7 | baseline: total Kelch domain-containing protein 2 signal | fraction of protein bound | 0.8%
Cc1cc(O)ccc1-c1cc(Br)c(-c2ccc(O)cc2C)[se]1 | ESR2 | antagonist | HEK293T | highest tested concentration, 24 h, added: estradiol 10 nM | baseline: estradiol alone | efficacy | 25 ± 8%
C[C@H](NC(=O)[C@H](Cc1ccccc1)NC(=O)[C@H](Cc1ccc(O)cc1)NC(=O)[C@H](CCC(=O)O)NC(=O)[C@H](CCCCN)NC(=O)[C@H](CCC(N)=O)NC(=O)[C@H](CC(N)=O)NC(=O)[C@H](CCC(=O)O)NS(=O)(=O)c1cccc2c(N(C)C)cccc12)C(=O)O | Rho guanine nucleotide exchange factor TIAM1, PDZ domain (TIAM1, Homo sapiens, UniProt Q13009) | fluorescence anisotropy | – | concentration not given, dansylated peptide | baseline: model peptide Kd over peptide Kd | binding affinity fold change | 1.7
O=S(=O)(F)CCCCCc1ccc(O)cc1 | Fatty-acid amide hydrolase 1, transmembrane domain deleted (Faah, Rattus norvegicus, UniProt P97612) | covalent inhibitor | – | 2-fold molar excess, 60 min | – | intact mass increase | 227 Da
AWSHPQFEKGGGSGGGSGG | Kelch domain-containing protein 2 | native mass spectrometry | peptide, 200 mM ammonium acetate | 20 µM Kelch domain-containing protein 2, pH 7 | baseline: total Kelch domain-containing protein 2 signal | fraction of protein bound | 0.8%
CC(C)[C@@H](CN1CCN(c2cccc(O)c2)[C@@H](C)C1)NC(=O)c1ccc(Oc2ccc(O)cc2)cc1 | OPRK1 | antagonist | CHO | added: U69593 | – | Ke | 8.6 ± 3.7 nM
TDRQGNALGWATAGG | Kelch domain-containing protein 2 | native mass spectrometry | peptide, 200 mM ammonium acetate | 20 µM Kelch domain-containing protein 2, pH 7 | baseline: total Kelch domain-containing protein 2 signal | fraction of protein bound | 0.2%
Ac-LDEVD-pNA (N-acetyl, C-pNA; pNA = O=[N+]([O-])c1ccc(N*)cc1) | Caspase-3 (CASP3, Homo sapiens, UniProt P42574) | substrate, colorimetric p-nitroanilide release | – | pH 7.5, room temperature | – | kcat | 0.883 ± 0.05 s⁻¹
O=C(CCc1ccccc1)NC1CCOC1=O (centres unmarked) | lasR | reporter gene, agonist | Escherichia coli JLD271/pJN105L/pSC11 | 100 µM | baseline: OdDHL 100 µM | activation | 53%
Oc1c(Cl)cc(-c2ccc(Cl)cc2Cl)cc1Cl | Aequorin-1 C152S/C159S/C187S | aequorin bioluminescence, inhibitor | – | 2 h, added: coelenterazine | – | detection limit | 3.3 µM
NC(=O)c1cccc(CNC(=O)c2nn(Cc3ccc(F)cc3)c3ccccc23)c1 | CNR2 | calcium mobilization, agonist | CHO-K1 expressing Gαq16 | – | baseline: CP55,940 maximum | Emax | 32 ± 2%
Oc1ccc(-c2ccc(-c3ccc(O)cc3F)[se]2)c(F)c1 | ESR1 | antagonist | HEK293T | highest tested concentration, added: estradiol 10 nM | baseline: estradiol alone | efficacy | 59 ± 10%
CC1N=C(c2ccccc2F)c2cc(Nc3ccccc3C#N)ccc2NC1=O (centres unmarked) | ADRA2A (Homo sapiens, UniProt P08913) | ligand displacement, radioligand | – | 10 µM | – | inhibition | 38%
CCCCCc1cc(O)c(C/C=C(\C)CCC=C(C)C)c(O)c1 | SCN9A (Homo sapiens, UniProt Q15858) | open-state fast inactivation shift, automated patch clamp | – | – | baseline: vehicle | lowest effective concentration | 15 µM
Cc1cc(-c2ccc(-c3ccc(O)c(C)c3)[se]2)ccc1O | ESR2 | antagonist | HEK293T | highest tested concentration, 24 h, added: estradiol 10 nM | baseline: estradiol alone | efficacy | 98 ± 14%
CC=O | ADH1 (Saccharomyces cerevisiae, UniProt P00330, T46G) | reduction, substrate | – | – | baseline: wild type over mutant | V/K decrease | 8400 fold
CC[C@H]1O[C@]2(C)[C@H](OC(C)=O)[C@@]1(C)O[C@@H](/C=C/C=C/C=C/c1oc(=O)cc(OC)c1C)[C@@H]2O | atpD, in F1Fo complex (Escherichia coli, UniProt P0ABB4) | ATP hydrolysis, single-molecule FRET | liposome-reconstituted F1Fo-ATPase | – | – | dwell time decay constant | 28 ± 3 ms

Some of these lines once more:
Substance | target | assay | test system | setting | how to read | endpoint | value
Oc1ccc(-c2ccc(-c3ccc(O)cc3F)[se]2)c(F)c1 | ESR1 | antagonist | HEK293T | highest tested concentration, added: estradiol 10 nM | baseline: estradiol alone | efficacy | 59 ± 10%
CC1N=C(c2ccccc2F)c2cc(Nc3ccccc3C#N)ccc2NC1=O (centres unmarked) | ADRA2A (Homo sapiens, UniProt P08913) | ligand displacement, radioligand | – | 10 µM | – | inhibition | 38%
CCCCCc1cc(O)c(C/C=C(\C)CCC=C(C)C)c(O)c1 | SCN9A (Homo sapiens, UniProt Q15858) | open-state fast inactivation shift, automated patch clamp | – | – | baseline: vehicle | lowest effective concentration | 15 µM
